{"data": "Published values of several laboratories", "note": "Each numbered part is a random draw from the data of one study; scales do not carry over between parts. Values joined by “and” are separate records of one study, mostly repeats; a detail may differ.", "sequence of UniProt Q96SW2 (whole entry, looked up)": "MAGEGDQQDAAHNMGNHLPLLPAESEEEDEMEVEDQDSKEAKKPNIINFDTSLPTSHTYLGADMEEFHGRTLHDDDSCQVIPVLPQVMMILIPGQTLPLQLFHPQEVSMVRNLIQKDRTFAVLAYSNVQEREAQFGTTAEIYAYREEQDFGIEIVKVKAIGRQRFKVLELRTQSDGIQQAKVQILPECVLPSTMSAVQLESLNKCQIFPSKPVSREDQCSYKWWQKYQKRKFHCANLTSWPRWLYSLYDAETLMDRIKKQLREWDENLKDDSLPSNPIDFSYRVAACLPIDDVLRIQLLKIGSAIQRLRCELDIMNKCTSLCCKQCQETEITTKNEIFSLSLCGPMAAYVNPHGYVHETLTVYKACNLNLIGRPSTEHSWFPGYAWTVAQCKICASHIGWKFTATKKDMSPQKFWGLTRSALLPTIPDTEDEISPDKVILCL", "sequence of UniProt Q9UKS7 (whole entry, looked up)": "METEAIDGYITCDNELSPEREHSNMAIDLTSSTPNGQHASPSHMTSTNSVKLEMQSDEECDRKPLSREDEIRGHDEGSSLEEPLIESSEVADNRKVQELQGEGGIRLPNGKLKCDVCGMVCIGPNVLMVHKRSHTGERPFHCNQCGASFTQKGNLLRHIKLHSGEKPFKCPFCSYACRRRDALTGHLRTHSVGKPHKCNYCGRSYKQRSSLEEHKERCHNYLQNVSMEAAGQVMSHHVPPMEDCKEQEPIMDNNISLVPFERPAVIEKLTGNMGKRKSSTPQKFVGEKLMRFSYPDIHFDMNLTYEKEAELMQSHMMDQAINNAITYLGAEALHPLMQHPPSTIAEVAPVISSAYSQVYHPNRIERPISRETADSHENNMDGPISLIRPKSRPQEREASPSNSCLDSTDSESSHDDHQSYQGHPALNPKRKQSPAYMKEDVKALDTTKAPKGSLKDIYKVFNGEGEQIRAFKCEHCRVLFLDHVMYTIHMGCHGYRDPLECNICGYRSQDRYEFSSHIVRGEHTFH"}
{"data": "Set 1", "target": "Calcium/calmodulin-dependent protein kinase type II subunit alpha (CAMK2A, Homo sapiens, UniProt Q9UQM7)", "read-out": "enzyme activity", "action": "inhibitor", "concentration": "10 µM", "sequence of UniProt Q9UQM7 (whole entry, looked up)": "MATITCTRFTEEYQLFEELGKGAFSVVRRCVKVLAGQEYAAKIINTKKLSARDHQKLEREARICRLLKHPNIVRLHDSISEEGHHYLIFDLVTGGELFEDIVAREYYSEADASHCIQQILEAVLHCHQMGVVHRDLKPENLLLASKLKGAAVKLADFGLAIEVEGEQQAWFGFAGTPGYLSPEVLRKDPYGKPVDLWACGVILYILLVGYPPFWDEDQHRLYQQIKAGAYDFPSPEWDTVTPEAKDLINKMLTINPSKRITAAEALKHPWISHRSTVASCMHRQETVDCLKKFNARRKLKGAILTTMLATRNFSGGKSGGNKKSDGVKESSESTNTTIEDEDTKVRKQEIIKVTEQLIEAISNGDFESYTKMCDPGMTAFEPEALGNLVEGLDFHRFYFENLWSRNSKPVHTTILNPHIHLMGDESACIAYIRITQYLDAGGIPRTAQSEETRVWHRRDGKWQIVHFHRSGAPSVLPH"}
{"Structure (SMILES)": "CC(C)=CC[C@@H](O)C1=CC(=O)c2c(O)ccc(O)c2C1=O", "inhibition": "-13%"}
{"Structure (SMILES)": "Cn1cc(-c2cc3c(N4CCN(c5ncc([C@@](C)(N)c6ccc(F)cc6)cn5)CC4)ncnn3c2)cn1", "inhibition": "-3%"}
{"Structure (SMILES)": "Nc1ncnc(N[C@@H]2O[C@H](CO)[C@@H](O)[C@H]2O)c1[N+](=O)[O-]", "inhibition": "-26%"}
{"Structure (SMILES)": "O=C(CCCCc1ccc2c(c1)OCO2)N1CCCCC1", "inhibition": "-26%"}
{"Structure (SMILES)": "Nc1ncnc2c1ncn2[C@@H]1O[C@H](COP(=O)(O)O)[C@@H](O)[C@H]1O", "inhibition": "-0.07% and 0.06%"}
{"Structure (SMILES)": "C=C1C(=O)O[C@H]2[C@H]1CCC(C)=C1CC[C@@](C)(O)[C@@H]12", "inhibition": "13%"}
{"Structure (SMILES)": "N[C@@H](Cc1ccccc1)C(=O)N[C@@H](Cc1c[nH]c2ccccc12)C(=O)O", "inhibition": "-13%"}
{"Structure (SMILES)": "CC(=O)O[C@H]1C[C@@H]2CC[C@@H]3[C@H](CC[C@@]4(C)[C@H]3C[C@H]([N+]3(C)CCCCC3)[C@@H]4OC(C)=O)[C@@]2(C)C[C@@H]1N1CCCCC1", "inhibition": "8%"}
{"data": "Set 2", "cell line": "mouse MPNST tumor cells", "technique": "high-content immunofluorescence imaging", "refers to": "nuclear SOX9", "concentration": "10 µM", "time": "12 h", "setting": "mean of 2 replicates", "relative to": "DMSO control", "reading": "higher = more nuclear SOX9"}
{"SMILES": "O=C1OCCN1/N=C/c1ccc([N+](=O)[O-])o1", "nuclear SOX9 intensity": "101 % of DMSO and 97.2 % of DMSO"}
{"SMILES": "Cc1cc(C(C)(C)C)c(O)c(C)c1CC1=NCCN1", "nuclear SOX9 intensity": "105 % of DMSO"}
{"SMILES": "O=c1[nH]c(=O)n([C@H]2C[C@H](O)[C@@H](CO)O2)cc1F", "nuclear SOX9 intensity": "109 % of DMSO"}
{"SMILES": "COCC1=C(C(=O)OC(C)OC(=O)OC(C)C)N2C(=O)[C@@H](NC(=O)/C(=N\\OC)c3csc(N)n3)[C@H]2SC1 (stereo partly drawn)", "nuclear SOX9 intensity": "89.9 % of DMSO"}
{"SMILES": "COc1ccc2c(c1)c(CC(=O)OCC(=O)O)c(C)n2C(=O)c1ccc(Cl)cc1", "nuclear SOX9 intensity": "96.5 % of DMSO"}
{"SMILES": "CCOC(=O)[C@H](CCc1ccccc1)N[C@@H](C)C(=O)N1Cc2ccccc2C[C@H]1C(=O)O", "nuclear SOX9 intensity": "102 % of DMSO"}
{"SMILES": "COc1ccc2c(c1)C(C(=O)N(Cc1ccc(N(C)C)cc1)c1ccc(C(C)C)cc1)CCC2 (stereo not drawn)", "nuclear SOX9 intensity": "102 % of DMSO"}
{"SMILES": "CC(C)(Sc1cc(C(C)(C)C)c(O)c(C(C)(C)C)c1)Sc1cc(C(C)(C)C)c(O)c(C(C)(C)C)c1", "nuclear SOX9 intensity": "118 % of DMSO and 99.7 % of DMSO"}
{"data": "Single results of other studies"}
{"SMILES": "CC(COc1ccccc1)N(CCCl)Cc1ccccc1 (stereo not drawn)", "target or system": "Plasmodium berghei", "system": "Huh-7, liver stage", "conditions": "10 µM, 24 h", "how to read": "relative to: control", "endpoint": "parasite load", "value": "123%"}
{"SMILES": "O=C1CCC(N2Cc3c(ccc4c3OCC43CCC(Oc4ccccc4)CC3)C2=O)C(=O)N1 (stereo not drawn)", "target or system": "CRBN/Zinc finger protein Helios (Homo sapiens, UniProt Q96SW2+Q9UKS7)", "assay": "degrader, HiBiT", "system": "HEK293", "conditions": "13.72 nM", "endpoint": "protein remaining", "value": "99.5%"}
